Results pooled from the literature.
Protocols differ between the studies behind these lines. Several values in a cell are separate wells, animals, samples, runs or records. ± gives the spread as reported.
F-box only protein 22: F-box only protein 22 (Homo sapiens, UniProt Q8NEZ5)
Chain of UniProt Q8NEZ5 (whole entry, looked up): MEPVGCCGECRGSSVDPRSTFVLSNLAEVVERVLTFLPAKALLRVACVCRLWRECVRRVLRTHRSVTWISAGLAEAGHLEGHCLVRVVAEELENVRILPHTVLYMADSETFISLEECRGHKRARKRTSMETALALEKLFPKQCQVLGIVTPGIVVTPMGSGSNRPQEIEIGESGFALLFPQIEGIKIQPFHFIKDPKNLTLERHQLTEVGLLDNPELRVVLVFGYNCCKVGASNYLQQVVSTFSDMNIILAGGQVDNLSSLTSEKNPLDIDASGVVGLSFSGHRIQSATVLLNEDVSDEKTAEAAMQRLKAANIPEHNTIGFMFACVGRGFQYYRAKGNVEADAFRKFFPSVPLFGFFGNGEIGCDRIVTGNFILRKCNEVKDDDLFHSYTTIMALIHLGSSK
LRP6 E1 domain: Low-density lipoprotein receptor-related protein 6, E1 domain (LRP6, Homo sapiens, UniProt O75581)
Chain of UniProt O75581 (whole entry, looked up): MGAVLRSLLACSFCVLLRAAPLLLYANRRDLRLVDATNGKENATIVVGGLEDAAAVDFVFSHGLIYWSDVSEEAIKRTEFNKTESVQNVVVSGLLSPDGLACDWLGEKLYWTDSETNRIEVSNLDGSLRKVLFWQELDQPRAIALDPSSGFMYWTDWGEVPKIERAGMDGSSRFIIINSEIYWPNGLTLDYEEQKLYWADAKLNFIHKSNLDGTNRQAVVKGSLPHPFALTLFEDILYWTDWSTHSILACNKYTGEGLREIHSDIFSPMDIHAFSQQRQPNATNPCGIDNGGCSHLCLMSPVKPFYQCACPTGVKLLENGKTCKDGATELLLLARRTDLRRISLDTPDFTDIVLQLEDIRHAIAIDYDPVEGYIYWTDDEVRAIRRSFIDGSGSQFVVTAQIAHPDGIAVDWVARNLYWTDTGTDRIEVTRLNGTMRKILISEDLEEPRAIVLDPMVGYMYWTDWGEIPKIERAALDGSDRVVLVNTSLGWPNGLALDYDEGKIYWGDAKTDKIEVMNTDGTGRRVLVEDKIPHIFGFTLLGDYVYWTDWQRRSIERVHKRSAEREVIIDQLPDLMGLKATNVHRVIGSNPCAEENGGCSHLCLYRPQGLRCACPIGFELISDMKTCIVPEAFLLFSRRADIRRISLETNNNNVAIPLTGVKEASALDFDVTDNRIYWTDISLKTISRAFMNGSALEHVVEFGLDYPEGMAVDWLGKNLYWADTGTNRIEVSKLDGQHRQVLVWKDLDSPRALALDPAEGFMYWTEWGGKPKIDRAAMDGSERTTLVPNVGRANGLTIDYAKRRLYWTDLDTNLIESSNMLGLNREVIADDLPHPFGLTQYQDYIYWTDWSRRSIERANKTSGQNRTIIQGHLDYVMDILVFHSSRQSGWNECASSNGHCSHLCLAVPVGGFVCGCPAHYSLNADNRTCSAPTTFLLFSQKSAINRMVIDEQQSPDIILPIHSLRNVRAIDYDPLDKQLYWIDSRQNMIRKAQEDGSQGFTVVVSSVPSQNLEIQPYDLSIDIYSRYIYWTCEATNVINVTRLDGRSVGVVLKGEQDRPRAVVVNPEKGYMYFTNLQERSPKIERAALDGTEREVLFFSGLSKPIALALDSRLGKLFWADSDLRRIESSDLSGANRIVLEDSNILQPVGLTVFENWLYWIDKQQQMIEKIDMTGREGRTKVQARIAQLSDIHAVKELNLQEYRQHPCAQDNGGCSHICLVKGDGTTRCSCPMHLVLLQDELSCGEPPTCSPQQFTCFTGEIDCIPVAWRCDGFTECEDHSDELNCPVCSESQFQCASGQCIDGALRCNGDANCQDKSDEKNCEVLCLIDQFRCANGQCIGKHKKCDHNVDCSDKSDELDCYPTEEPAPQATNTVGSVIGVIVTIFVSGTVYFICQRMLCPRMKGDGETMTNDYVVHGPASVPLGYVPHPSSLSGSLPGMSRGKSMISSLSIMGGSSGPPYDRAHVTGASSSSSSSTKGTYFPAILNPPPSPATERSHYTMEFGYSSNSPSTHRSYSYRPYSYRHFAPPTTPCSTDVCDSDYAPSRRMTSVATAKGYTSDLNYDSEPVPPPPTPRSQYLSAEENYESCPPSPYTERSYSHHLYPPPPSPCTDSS
YWHAZ: 14-3-3 protein zeta/delta (YWHAZ, Homo sapiens, UniProt P63104)
Chain of UniProt Q9H4M9 (whole entry, looked up): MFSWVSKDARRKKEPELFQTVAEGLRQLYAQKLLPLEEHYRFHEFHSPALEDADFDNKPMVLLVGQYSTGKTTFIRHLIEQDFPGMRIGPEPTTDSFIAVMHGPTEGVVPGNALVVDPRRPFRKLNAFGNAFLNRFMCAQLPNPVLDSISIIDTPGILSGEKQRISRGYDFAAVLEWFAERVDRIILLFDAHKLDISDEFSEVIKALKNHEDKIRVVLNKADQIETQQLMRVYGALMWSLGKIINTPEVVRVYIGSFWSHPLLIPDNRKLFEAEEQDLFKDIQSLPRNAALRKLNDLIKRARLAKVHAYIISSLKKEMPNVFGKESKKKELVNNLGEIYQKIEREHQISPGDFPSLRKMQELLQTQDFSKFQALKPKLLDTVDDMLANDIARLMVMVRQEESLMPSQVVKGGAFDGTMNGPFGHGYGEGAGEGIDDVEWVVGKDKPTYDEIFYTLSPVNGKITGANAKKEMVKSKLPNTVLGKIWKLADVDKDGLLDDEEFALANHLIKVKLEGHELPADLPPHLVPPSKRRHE
Chain of UniProt P63104 (whole entry, looked up): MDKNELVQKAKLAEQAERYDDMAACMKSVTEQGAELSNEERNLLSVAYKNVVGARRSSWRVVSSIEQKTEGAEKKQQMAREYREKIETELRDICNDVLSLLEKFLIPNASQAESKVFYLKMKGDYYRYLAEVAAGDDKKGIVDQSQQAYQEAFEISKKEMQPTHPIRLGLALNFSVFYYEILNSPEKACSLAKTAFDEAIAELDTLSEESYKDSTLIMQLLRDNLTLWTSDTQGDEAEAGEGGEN
Chain of UniProt P97287 (152-308, looked up): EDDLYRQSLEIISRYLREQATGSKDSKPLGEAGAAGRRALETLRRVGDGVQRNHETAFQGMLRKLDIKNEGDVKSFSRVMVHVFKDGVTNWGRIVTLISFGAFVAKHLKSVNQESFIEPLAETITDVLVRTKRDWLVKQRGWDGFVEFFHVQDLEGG
Chain of UniProt Q9H7M9 (whole entry, looked up): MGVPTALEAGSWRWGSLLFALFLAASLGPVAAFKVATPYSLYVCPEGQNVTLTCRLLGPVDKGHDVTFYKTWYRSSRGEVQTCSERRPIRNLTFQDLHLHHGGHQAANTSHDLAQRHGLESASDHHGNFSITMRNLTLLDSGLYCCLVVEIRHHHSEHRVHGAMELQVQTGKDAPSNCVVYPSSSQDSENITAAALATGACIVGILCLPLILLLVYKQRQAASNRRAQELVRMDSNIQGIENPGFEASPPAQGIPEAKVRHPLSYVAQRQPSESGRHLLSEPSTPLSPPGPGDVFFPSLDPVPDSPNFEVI
Chain of UniProt P07342 (whole entry, looked up): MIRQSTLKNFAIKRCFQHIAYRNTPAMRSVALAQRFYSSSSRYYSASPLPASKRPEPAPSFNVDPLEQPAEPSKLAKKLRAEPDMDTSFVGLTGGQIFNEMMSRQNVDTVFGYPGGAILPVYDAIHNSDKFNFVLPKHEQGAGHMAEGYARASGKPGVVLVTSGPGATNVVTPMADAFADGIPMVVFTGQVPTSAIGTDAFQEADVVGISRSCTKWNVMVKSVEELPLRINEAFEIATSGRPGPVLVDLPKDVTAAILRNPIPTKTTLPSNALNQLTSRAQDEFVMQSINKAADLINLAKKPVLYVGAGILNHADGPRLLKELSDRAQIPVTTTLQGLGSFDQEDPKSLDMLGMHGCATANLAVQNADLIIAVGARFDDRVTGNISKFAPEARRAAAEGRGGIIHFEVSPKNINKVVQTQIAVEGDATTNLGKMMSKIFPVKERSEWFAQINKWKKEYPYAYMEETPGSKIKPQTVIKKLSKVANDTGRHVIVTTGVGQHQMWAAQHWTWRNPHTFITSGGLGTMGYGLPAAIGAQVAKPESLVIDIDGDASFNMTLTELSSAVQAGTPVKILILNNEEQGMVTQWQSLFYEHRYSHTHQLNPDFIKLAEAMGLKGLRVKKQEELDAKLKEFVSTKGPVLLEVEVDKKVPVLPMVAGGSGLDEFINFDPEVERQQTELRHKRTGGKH
Chain of UniProt P40261 (whole entry, looked up): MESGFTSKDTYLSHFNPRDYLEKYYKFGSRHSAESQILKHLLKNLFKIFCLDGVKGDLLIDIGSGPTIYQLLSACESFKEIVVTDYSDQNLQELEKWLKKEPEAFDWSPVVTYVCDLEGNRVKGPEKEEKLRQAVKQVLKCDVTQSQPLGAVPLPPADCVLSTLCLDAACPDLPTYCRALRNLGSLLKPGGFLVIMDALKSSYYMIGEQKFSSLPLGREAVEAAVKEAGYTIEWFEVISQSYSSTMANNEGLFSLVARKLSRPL
Chain of UniProt Q15349 (whole entry, looked up): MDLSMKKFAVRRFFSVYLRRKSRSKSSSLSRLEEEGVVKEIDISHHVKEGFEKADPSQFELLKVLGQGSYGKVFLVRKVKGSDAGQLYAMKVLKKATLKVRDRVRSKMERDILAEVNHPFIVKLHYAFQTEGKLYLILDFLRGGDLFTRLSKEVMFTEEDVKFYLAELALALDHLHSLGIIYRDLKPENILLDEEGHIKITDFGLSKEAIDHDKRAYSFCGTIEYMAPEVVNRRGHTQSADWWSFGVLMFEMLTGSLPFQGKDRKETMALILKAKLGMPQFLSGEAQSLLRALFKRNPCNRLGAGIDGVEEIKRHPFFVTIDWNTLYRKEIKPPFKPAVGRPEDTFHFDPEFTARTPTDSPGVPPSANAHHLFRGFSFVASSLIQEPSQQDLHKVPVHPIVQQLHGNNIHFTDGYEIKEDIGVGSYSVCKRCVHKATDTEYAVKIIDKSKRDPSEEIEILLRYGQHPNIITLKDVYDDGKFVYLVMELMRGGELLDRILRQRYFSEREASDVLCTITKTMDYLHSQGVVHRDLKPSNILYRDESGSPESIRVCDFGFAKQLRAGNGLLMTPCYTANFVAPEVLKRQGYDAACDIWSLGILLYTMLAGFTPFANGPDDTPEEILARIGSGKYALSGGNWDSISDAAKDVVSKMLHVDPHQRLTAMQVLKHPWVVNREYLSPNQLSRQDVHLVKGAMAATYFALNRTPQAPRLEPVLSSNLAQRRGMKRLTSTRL

SMILES	tested on	assay	system	conditions	scale	endpoint	value
CC(C)C[C@H](NC(=O)CNC(=O)[C@H](C)NC(=O)[C@H](CC(=O)O)NC(=O)[C@H](CC(=O)O)NC(=O)[C@H](C)NC(=O)[C@@H]1CCCN1C(=O)[C@H](CCCCN)NC(=O)CNC(=O)[C@@H]1CCCN1C(=O)[C@@H]1CCCN1C(=O)[C@@H]1CCCN1C(=O)[C@H](CCC(=O)O)NC(=O)CN)C(=O)N[C@@H](C)C(=O)O	F-box only protein 22	binding, SPR				Kd	32 µM
CC[C@H](C)[C@@H]1NC(=O)[C@H](C)NC(=O)[C@H](CCCCN)NC(=O)[C@@H](NC(=O)CN)CSSC[C@@H]2NC(=O)CNC(=O)[C@H](C)NC(=O)[C@H](CC(C)C)NC(=O)[C@@H]3CSSC[C@@H](C(=O)NCC(=O)O)NC(=O)[C@H](Cc4ccccc4)NC(=O)CNC(=O)[C@H](CC(N)=O)NC(=O)[C@@H]4CCCN4C(=O)CNC(=O)[C@H](CSSC[C@H](NC(=O)[C@H](CCCNC(=N)N)NC(=O)[C@H](CCC(N)=O)NC(=O)[C@@H]4CCCN4C(=O)[C@H](CCCCN)NC(=O)[C@H](CC(C)C)NC(=O)[C@H](CC(C)C)NC(=O)[C@H](CC(N)=O)NC1=O)C(=O)N[C@@H](CCCCN)C(=O)N[C@@H](CCC(N)=O)C(=O)N[C@@H](CC(=O)O)C(=O)N[C@@H](CO)C(=O)N[C@@H](CC(=O)O)C(=O)N3)NC(=O)[C@H](C(C)C)NC2=O	LRP6 E1 domain	binding, SPR		pH 7.5		Kd	0.366 µM
C#CCN1C(=O)C(CC#C)(C(=O)OCC)Oc2ccccc21 (stereo not shown)	Acetolactate synthase catalytic subunit, mitochondrial (Saccharomyces cerevisiae S288c, UniProt P07342)	binding, MST				Kd	133 µM
C#CC[C@H](NC(=O)CNC(=O)[C@H](CO)NC(=O)[C@@H]1CCCCNC(=O)CCCC(=O)N[C@@H](CCSC)C(=O)N[C@@H](Cc2c[nH]c3ccccc23)C(=O)N2CCC[C@H]2C(=O)N[C@@H](Cc2c[nH]cn2)C(=O)N[C@@H](CCCNC(=N)N)C(=O)N[C@@H](C(C)C)C(=O)N[C@@H]([C@@H](C)O)C(=O)N[C@@H](C)C(=O)N(C)[C@@H](C)C(=O)N1)C(=O)O	Microtubule-associated protein 1 light chain 3 beta (Homo sapiens, UniProt Q9GZQ8)	fluorescence polarization		together with: fluorescein-labelled peptide		Kd	0.177 ± 0.0238 µM
CC(C)C[C@@H]1NC(=O)[C@@H]2CSSC[C@@H](C(=O)NCC(=O)O)NC(=O)[C@H](Cc3ccccc3)NC(=O)CNC(=O)[C@H](CC(N)=O)NC(=O)[C@@H]3CCCN3C(=O)CNC(=O)[C@@H]3CSSC[C@H](NC(=O)[C@H](CCCNC(=N)N)NC(=O)[C@@H]4CCCN4C(=O)[C@H](Cc4c[nH]cn4)NC(=O)[C@H](CCCCN)NC(=O)[C@H](C(C)C)NC(=O)[C@H](CCCNC(=N)N)NC(=O)[C@H](CC(N)=O)NC(=O)[C@@H]4CCCN4C(=O)[C@H](CO)NC(=O)[C@H](CCC(N)=O)NC(=O)[C@@H](NC(=O)CN)CSSC[C@H](NC(=O)CNC(=O)[C@H](C)NC1=O)C(=O)N[C@@H](C(C)C)C(=O)N3)C(=O)N[C@@H](CCCCN)C(=O)N[C@@H](CCC(N)=O)C(=O)N[C@@H](CC(=O)O)C(=O)N[C@@H](CO)C(=O)N[C@@H](CC(=O)O)C(=O)N2	LRP6 E1 domain	binding, SPR		pH 7.5		Kd	0.647 µM
CC(=O)N[C@@H](Cc1ccc(O)cc1)C(=O)N[C@@H](CC(N)=O)C(=O)N1CCC[C@H]1C(=O)N[C@@H](Cc1ccccc1)C(=O)N[C@@H](CCC(=O)O)C(=O)N[C@@H](CCC(=O)O)C(=O)NCC(=O)NCC(N)=O	EH domain-containing protein 1, EH domain (Homo sapiens, UniProt Q9H4M9)	peptide binding, ITC		20 °C, 150 mM NaCl		Kd	33.9 µM and 33.3 µM and 40 µM
CN(C)[C@H]1C[C@@]23CC[C@@]4(O2)C(=CC[C@]2(C)[C@@H](c5ccc6ccncc6c5)CC[C@H]24)C=C3[C@@H](O)[C@@H]1O	Ribosomal protein S6 kinase alpha-2, kinase domain 1 (RPS6KA2, Homo sapiens, UniProt Q15349)	ATP probe labelling, inhibitor, KiNativ profiling		0.1 µM		inhibition	-8.5%
O=C(N[C@@H]1c2ccccc2C[C@H]1N1CCCC1)c1ccc(-c2ccnc3[nH]ccc23)nc1	Rhodopsin kinase GRK7 (GRK7, Homo sapiens, UniProt Q8WTQ7)	binding, competition with immobilised ligand				Kd	0.31 µM
COc1ccccc1-c1n[nH]c2nc(NC3CCN(C(=O)Cc4ccc(F)cc4F)CC3)ncc12		bead binding, competition bead pull-down, measured: LINJ.22.0350	Leishmania donovani extract	10 µM	relative to: vehicle	relative abundance	1.08
CC(=O)NCCCC[C@H](NC(=O)[C@H](CCCNC(=N)N)NC(=O)[C@H](C)NC(=O)[C@@H](NC(=O)[C@H](CCC(N)=O)NC(=O)[C@H](CCCCN)NC(=O)[C@@H](NC(=O)[C@H](CCCNC(=N)N)NC(C)=O)[C@@H](C)O)[C@@H](C)O)C(=O)N[C@@H](CO)C(=O)N[C@H](C(=O)NCC(=O)NCC(=O)N[C@@H](CCCCN)C(=O)N[C@@H](C)C(=O)N1CCC[C@H]1C(N)=O)[C@@H](C)O	Protein AF-9 (Homo sapiens, UniProt P42568)	binding, ITC		pH 7.5		Kd	4.3 µM
O=C1NC2(CC2)COc2ncc(F)cc2[C@H]2COCCN2c2ccn3ncc1c3n2			Sprague-Dawley rat, male, serum	oral, 2.5 mg/kg/day, end of treatment, 4-week subacute toxicity		serum total bilirubin	1.1 ± 0.3 µmol/L
CSCC[C@H](NC=O)C(=O)N[C@@H](CCCNC(=N)N)C(=O)N[C@H](C(=O)NCC(=O)N[C@@H](CC(N)=O)C(=O)N[C@@H](C)C(=O)N[C@@H](CC(N)=O)C(=O)NCC(=O)NCC(=O)N[C@@H](CCCCNC(=S)Nc1ccc2c(c1)C(=O)OC21c2ccc(O)cc2Oc2cc(O)ccc21)C(=O)O)[C@@H](C)O	Uncharacterized protein YejA (yejA, Escherichia coli, UniProt P33913, S476A/S494A)	binding, fluorescence polarisation		YejA variant S476A		Kd	12.9 ± 0.54 µM
CCC1CC(=O)N[C@@H](CC(=O)O)C(=O)N2CC(CCO)C[C@H]2C(=O)N[C@@H](CCC(=O)O)C(=O)N[C@@H]([C@@H](C)O)C(=O)NCC(=O)N[C@@H](CCC(=O)O)C(=O)N1 (stereo partly shown)	Kelch-like ECH-associated protein 1 (KEAP1, Homo sapiens, UniProt Q14145)	binding, MST				Kd	0.0198 µM
Cn1c2cccc(=O)c-2nc2ccccc21	Multidrug resistance operon repressor (mexR, Pseudomonas aeruginosa, UniProt P52003)	binding, microscale thermophoresis		wild-type protein		Kd	10.6 µM
CC[C@H](C)[C@H](NC(=O)[C@H](CCC(=O)O)NC(=O)[C@H](CCCNC(=N)N)NC(=O)[C@H](C)NC(=O)[C@H](Cc1c[nH]c2ccccc12)NC(=O)[C@H](CCC(=O)O)NC(=O)[C@H](CCC(=O)O)NC(=O)[C@H](CCC(=O)O)NC(C)=O)C(=O)NCC(=O)N[C@@H](C)C(=O)N[C@@H](CCC(N)=O)C(=O)N[C@@H](CC(C)C)C(=O)N[C@@H](CCCNC(=N)N)C(=O)N[C@@H](CCCNC(=N)N)C(=O)N[C@@H](CC1CCCCC1)C(=O)N[C@@H](C)C(=O)N[C@@H](CC(=O)O)C(=O)N[C@@H](CC(=O)O)C(=O)N[C@@H](CC(C)C)C(=O)N[C@@H](CC(N)=O)C(=O)N[C@@H](C)C(=O)N[C@@H](CCC(N)=O)C(=O)N[C@@H](Cc1ccc(O)cc1)C(=O)N[C@@H](CCC(=O)O)C(=O)N[C@@H](CCCNC(=N)N)C(=O)N[C@@H](CCCNC(=N)N)C(=O)N[C@@H](CCCNC(=N)N)C(N)=O	Induced myeloid leukemia cell differentiation protein Mcl-1 homolog, residues 152-308 (Mus musculus, UniProt P97287)	binding, SPR		0.2% DMSO		Kd	0.00023 µM
CC(C)C[C@H](NC(=O)[C@H](CCCCN)NC(=O)CNC(=O)[C@H](Cc1ccccc1)NC(=O)[C@H](CO)NC(=O)[C@H](Cc1c[nH]c2ccccc12)NC(=O)CNC(=O)[C@@H]1CCCN1C(=O)[C@@H](N)CC(=O)O)C(=O)N[C@@H](Cc1c[nH]cn1)C(=O)N[C@H](Cc1c[nH]c2ccccc12)C(=O)N1CCC[C@@H]1C(=O)O	V-type immunoglobulin domain-containing suppressor of T-cell activation (VSIR, Homo sapiens, UniProt Q9H7M9)	binding, microscale thermophoresis				Kd	2.07 µM
NC(=O)c1ccc(N)nc1	Nicotinamide N-methyltransferase, SAM-bound (NNMT, Homo sapiens, UniProt P40261)	substrate, SPR		20 °C, together with: SAM		Kd	3.98 µM
CC(C)(C)C(=O)OCOP(=O)(OCOC(=O)C(C)(C)C)C1CCCN(O)C1=O (stereo not shown)	OVCAR-3					log LC50	> -4 log M
CC(C)C[C@H](NC(=O)[C@H](CCP(=O)(O)O)NC(=O)[C@@H](NC(=O)[C@@H](NC(=O)[C@H](CCCNC(=N)N)NC(=O)[C@H](CC(C)C)NC(=O)[C@H](CO)NC(=S)Nc1ccc2c(c1)C(=O)OC21c2ccc(O)cc2Oc2cc(O)ccc21)[C@@H](C)O)C(C)C)C(=O)NCC(=O)N[C@@H](C)C(=O)NCC(=O)N[C@@H](C)C(=O)N[C@@H](Cc1c[nH]c2ccccc12)C(=O)N[C@@H](CC(C)C)C(=O)N[C@H](C(=O)N1CCC[C@H]1C(=O)N[C@@H](CCCNC(=N)N)C(=O)O)C(C)C	YWHAZ	binding, fluorescence anisotropy		pH 7.5, FITC-labelled phosphopeptide titration		Kd	36.3 µM
CC(C)C[C@H](NC(=O)CNC(=O)[C@H](C)NC(=O)[C@H](CC(=O)O)NC(=O)[C@H](C)NC(=O)[C@H](C)NC(=O)[C@@H]1CCCN1C(=O)[C@H](CCCCN)NC(=O)CNC(=O)[C@@H]1CCCN1C(=O)[C@@H]1CCCN1C(=O)[C@@H]1CCCN1C(=O)[C@H](CCC(=O)O)NC(=O)CN)C(=O)N[C@H](C(=O)O)C(C)C	F-box only protein 22	binding, SPR				Kd	11 µM
CC(=O)N[C@@H](CCCNC(=N)N)C(=O)N[C@H](C(=O)N1CCC[C@H]1C(=O)N[C@@H](COP(=O)(O)O)C(=O)N[C@@H](CC(C)C)C(=O)N1CCC[C@H]1C(=O)N[C@H](C(=O)N1CCC[C@H]1C(c1ccccc1)c1ccccc1)[C@@H](C)O)[C@@H](C)O	YWHAZ	isothermal titration calorimetry		first duplicate		Kd	5.35 ± 0.38 µM
CC[C@H](C)[C@@H]1NC(=O)[C@@H]2CCCN2C(=O)[C@H](Cc2c[nH]c3ccccc23)NC(=O)[C@H](CO)NC(=O)[C@H](Cc2c[nH]c3ccccc23)NC(=O)[C@H](CC(N)=O)NC(=O)[C@H](CCCCN)NC(=O)[C@H](CCSC)NC(=O)[C@@H]2CSCCC(=O)N3CN(CN(C3)C(=O)CCSC[C@H](NC(=O)[C@H](C)N)C(=O)N3CCC[C@H]3C(=O)N[C@@H](Cc3ccccc3)C(=O)NCC(=O)N2)C(=O)CCSC[C@@H](C(=O)N[C@H](C(=O)N[C@@H](CC(N)=O)C(=O)N[C@@H](CCCCN)C(=O)N(C)CC(=O)N(C)CC(=O)N(C)CC(=O)N(C)CC(=O)N(C)CC(=O)N(C)CC(=O)N[C@@H](CCCCNC(=O)c2ccc(C(=O)O)c(-c3c4ccc(=O)cc-4oc4cc(O)ccc34)c2)C(N)=O)[C@@H](C)O)NC(=O)[C@H](Cc2c[nH]c3ccccc23)NC1=O	Cell adhesion molecule 1 (CADM1, Homo sapiens, UniProt Q9BY67)	fluorescence polarization				Kd	> 2 µM

For quick reference, copied from above:
SMILES	tested on	assay	system	conditions	scale	endpoint	value
O=C(N[C@@H]1c2ccccc2C[C@H]1N1CCCC1)c1ccc(-c2ccnc3[nH]ccc23)nc1	Rhodopsin kinase GRK7 (GRK7, Homo sapiens, UniProt Q8WTQ7)	binding, competition with immobilised ligand				Kd	0.31 µM
COc1ccccc1-c1n[nH]c2nc(NC3CCN(C(=O)Cc4ccc(F)cc4F)CC3)ncc12		bead binding, competition bead pull-down, measured: LINJ.22.0350	Leishmania donovani extract	10 µM	relative to: vehicle	relative abundance	1.08
